Published values pooled from the literature.
Protocols differ between the studies behind these lines. ± gives the spread as reported.
U2AF2: U2AF2 148-342 (Homo sapiens, UniProt P26368)
Chain of UniProt P26368 (whole entry, looked up): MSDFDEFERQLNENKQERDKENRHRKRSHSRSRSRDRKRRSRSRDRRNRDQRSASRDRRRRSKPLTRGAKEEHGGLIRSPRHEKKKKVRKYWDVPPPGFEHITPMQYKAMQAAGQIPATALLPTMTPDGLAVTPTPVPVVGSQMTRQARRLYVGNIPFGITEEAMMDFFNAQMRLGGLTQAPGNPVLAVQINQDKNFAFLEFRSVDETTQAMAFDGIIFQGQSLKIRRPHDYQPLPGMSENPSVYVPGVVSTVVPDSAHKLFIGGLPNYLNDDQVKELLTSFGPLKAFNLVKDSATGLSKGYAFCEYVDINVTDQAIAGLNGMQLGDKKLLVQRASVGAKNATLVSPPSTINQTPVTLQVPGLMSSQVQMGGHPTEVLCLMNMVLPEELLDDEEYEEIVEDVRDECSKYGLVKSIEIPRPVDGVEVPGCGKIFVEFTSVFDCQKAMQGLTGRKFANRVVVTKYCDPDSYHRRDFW
B1: enzyme (Homo sapiens, UniProt P50583); chain ALRACGLIIFRRCLIPKVDNNAIEFLLLQASDGIHHWTPPKGHVEPGEDDLETALRETQEEAGIEAGQLTIIEGFKRELNYVARNKPKTVIYWLAEVKDYDVEIRLSHEHQAYRWLGLEEACQLAQFKEMKAALQEGHQFLCSIEA
B2: enzyme R85Q (Methanopyrus kandleri, UniProt Q8TWG5); chain MSKVAVIGATGRVGSTAAARLALLDCVNEVTLIARPKSVDKLRGLRRDILDSLAAAQKDAEITIGCERDDYVDADVIVMTAGIPQKPGQTRLDLTKDNAAIIKKYLEGVAEENPEAIVLVVTNPVDVLTYVALKVSGLPKNRVIGLGTHLDSMRFKVLIAKHFNVHMSEVHTRIIGEHGDTMVPVISSTSVGGIPVTRMPGWEDFDVEEAVREVKEAGQRIIETWGGSQFGPAQAITNLVRTILQDERRVLTVSAYLDGEIDGIRDVCIGVPARLGREGVLEIVPIELEEDEMRAFRRSVKVVKEATREAMEAISER
B3: enzyme (Azotobacter vinelandii, UniProt C1DN94); chain MSESPLRLDRLRDFVSALGELLDRHPDEESVLREGRSLLGELVRHDDWLPEEFAQPDPERYQQYLLHADSRQRFSVVSFVWGPGQTTPVHDHRVWGLIGMLRGAEDAQSFELGAEGLRPIGDPVRLSPGQVEAVSPRIGDIHRVFNASPDQPSISIHVYGANIGAVRRAVYLPDGSEKPFISGYSNQFLPNIWDQSKESARP
B4: nfsB (Escherichia coli, UniProt P38489); chain MDIISVALKRHSTKAFDASKKLTPEQAEQIKTLLQYSPSSTNSQPWHFIVASTEEGKARVAKSAAGNYVFNERKMLDASHVVVFCAKTAMDDVWLKLVVDQEDADGRFATPEAKAANDKGRKFFADMHRKDLHDDAEWMAKQVYLNVGNFLLGVAALGLDAVPIEGFDAAILDAEFGLKEKGYTSLVVVPVGHHSVEDFNATLPKSRLPQNITLTEV
B5: enzyme H459A (Methanosarcina mazei, UniProt Q8PVB1); chain MSEQRSVPLREHLLALKPCRHGGLIQETSETYGIPENEILDFSANFNPLGSPFDYPENGLNFEDIIKKSCGKLLEYPDNRYVEFREAAARFVGLGVTPQSIVPGNGSTEIVRLVVESVIEKGDKVLLPWPTFGEYEMQCRITGAEPVCPSQEEVNTLPDEVLEEAKILFICNPNNPTGKLRTREELKVLAERCREHKTLLYVDEAFIELSDPSQSVADLPAENNYVFVMRSLTKDFAIPGIRMGFGIAPPAMADILNTARLSWNLGAIANNTGIALLNIEGGIDSPYLKKAREMILKEGETLKAKIDRIRGFEAGEVNVNFILVDVSKFMLNSSELTARLAARGVLVRDCVSFHGLGKNYIRVAVRTEKENDRLIAAIGDVITEWGREQAKNELQHVIEKASEEGIGGRKTCEYYPCHFEGQNCTFCFCPFYPCENEKTGGKWIQSSRGGRVWSCVDCALVHKKEIAQKILDCLMHEGDTDELVKVAWKEVMEPIL
B6: enzyme S252E/S281E/S285E/S287E (Schizosaccharomyces pombe, UniProt P78804); chain MSTPYEPEFQQAYKEIVGSIESSKLFEVHPELKRVLPIISIPERVLEFRVTWEDDKGNCRVNTGYRVQFNSALGPYKGGLRFHPSVNLSILKFLGFEQIFKNALTGLPMGGGKGGSDFDPKGKSDNEIRRFSQAFMRQLFRYIGPQTDVPAGDIGVTGFVVMHMFGEYKRLRNEYSGVVTGKHMLTGGSNIRPEATGYGVVYYVKHMIEHRTKGAETLKGKRVAISGSGNVAQYAALKCIQEGAIVKSISDEKGVLIAKTAEGLVPEEIHEIMALKEKRAEIADEAELCKKHHYIAGARPWTNVGEIDIALPCATQNEVSGEEAAALIKQGCRYVAEGSNMGSSAEAVEVFEKSRASGEGCWLAPGKAANAGGVAVSGLEMAQNAQFSTWTHAEVDAKLAGIMQNIFEQSTDVASKYCDSGSNNIPSLVDGANIAGFLKVATAMQAVGDWW
B7: PYCR2 R251C (Homo sapiens, UniProt Q96C36); chain MSVGFIGAGQLAYALARGFTAAGILSAHKIIASSPEMNLPTVSALRKMGVNLTRSNKETVKHSDVLFLAVKPHIIPFILDEIGADVQARHIVVSCAAGVTISSVEKKLMAFQPAPKVIRCMTNTPVVVQEGATVYATGTHALVEDGQLLEQLMSSVGFCTEVEEDLIDAVTGLSGSGPAYAFMALDALADGGVKMGLPRRLAIQLGAQALLGAAKMLLDSEQHPCQLKDNVCSPGGATIHALHFLESGGFCSLLINAVEASCIRTRELQSMADQEKISPAALKKTLLDRVKLESPTVSTLTPSSPGKLLTRSLALGGKKD
B8: enzyme (Equus caballus, UniProt P00327); chain STAGKVIKCKAAVLWEEKKPFSIEEVEVAPPKAHEVRIKMVATGICRSDDHVVSGTLVTPLPVIAGHEAAGIVESIGEGVTTVRPGDKVIPLFTPQCGKCRVCKHPEGNFCLKNDLSMPRGTMQDGTSRFTCRGKPIHHFLGTSTFSQYTVVDEISVAKIDAASPLEKVCLIGCGFSTGYGSAVKVAKVTQGSTCAVFGLGGVGLSVIMGCKAAGAARIIGVDINKDKFAKAKEVGATECVNPQDYKKPIQEVLTEMSNGGVDFSFEVIGRLDTMVTALSCCQEAYGVSVIVGVPPDSQNLSMNPMLLLSGRTWKGAIFGGFKSKDSVPKLVADFMAKKFALDPLITHVLPFEKINEGFDLLRSGESIRTILTF
B9: human ADP/ATP translocase 1; sequence looked up; chain GDHAWSFLKDFLAGGVAAAVSKTAVAPIERVKLLLQVQHASKQISAEKQYKGIIDCVVRIPKEQGFLSFWRGNLANVIRYFPTQALNFAFKDKYKQLFLGGVDRHKQFWRYFAGNLASGGAAGATSLCFVYPLDFARTRLAADVGKGAAQREFHGLGDCIIKIFKSDGLRGLYQGFNVSVQGIIIYRAAYFGVYDTAKGMLPDPKNVHIFVSWMIAQSVTAVAGLVSYPFDTVRRRMMMQSGRKGADIMYTGTVDCWRKIAKDEGAKAFFKGAWSNVLRGMGGAFVLVLYDEIKKYV
B10: DCK (Homo sapiens, UniProt P27707); chain MATPPKRSCPSFSASSEGTRIKKISIEGNIAAGKSTFVNILKQLCEDWEVVPEPVARWCNVQSTQDEFEELTMSQKNGGNVLQMMYEKPERWSFTFQTYACLSRIRAQLASLNGKLKDAEKPVLFFERSVYSDRYIFASNLYESECMNETEWTIYQDWHDWMNNQFGQSLELDGIIYLQATPETCLHRIYLRGRNEEQGIPLEYLEKLHYKHESWLLHRTLKTNFDYLQEVPILTLDVNEDFKDKYESLVEKVKEFLSTL
Chain of UniProt P11446 (whole entry, looked up): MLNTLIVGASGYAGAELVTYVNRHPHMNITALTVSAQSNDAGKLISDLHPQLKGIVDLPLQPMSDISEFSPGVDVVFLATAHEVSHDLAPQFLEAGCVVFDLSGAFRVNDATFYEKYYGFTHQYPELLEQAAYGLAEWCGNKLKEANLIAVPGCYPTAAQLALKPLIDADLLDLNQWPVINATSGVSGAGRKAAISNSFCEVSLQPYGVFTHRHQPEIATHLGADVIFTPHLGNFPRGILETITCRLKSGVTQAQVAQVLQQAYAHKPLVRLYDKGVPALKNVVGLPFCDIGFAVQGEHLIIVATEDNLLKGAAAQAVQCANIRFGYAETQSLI
Chain of UniProt P09546 (whole entry, looked up): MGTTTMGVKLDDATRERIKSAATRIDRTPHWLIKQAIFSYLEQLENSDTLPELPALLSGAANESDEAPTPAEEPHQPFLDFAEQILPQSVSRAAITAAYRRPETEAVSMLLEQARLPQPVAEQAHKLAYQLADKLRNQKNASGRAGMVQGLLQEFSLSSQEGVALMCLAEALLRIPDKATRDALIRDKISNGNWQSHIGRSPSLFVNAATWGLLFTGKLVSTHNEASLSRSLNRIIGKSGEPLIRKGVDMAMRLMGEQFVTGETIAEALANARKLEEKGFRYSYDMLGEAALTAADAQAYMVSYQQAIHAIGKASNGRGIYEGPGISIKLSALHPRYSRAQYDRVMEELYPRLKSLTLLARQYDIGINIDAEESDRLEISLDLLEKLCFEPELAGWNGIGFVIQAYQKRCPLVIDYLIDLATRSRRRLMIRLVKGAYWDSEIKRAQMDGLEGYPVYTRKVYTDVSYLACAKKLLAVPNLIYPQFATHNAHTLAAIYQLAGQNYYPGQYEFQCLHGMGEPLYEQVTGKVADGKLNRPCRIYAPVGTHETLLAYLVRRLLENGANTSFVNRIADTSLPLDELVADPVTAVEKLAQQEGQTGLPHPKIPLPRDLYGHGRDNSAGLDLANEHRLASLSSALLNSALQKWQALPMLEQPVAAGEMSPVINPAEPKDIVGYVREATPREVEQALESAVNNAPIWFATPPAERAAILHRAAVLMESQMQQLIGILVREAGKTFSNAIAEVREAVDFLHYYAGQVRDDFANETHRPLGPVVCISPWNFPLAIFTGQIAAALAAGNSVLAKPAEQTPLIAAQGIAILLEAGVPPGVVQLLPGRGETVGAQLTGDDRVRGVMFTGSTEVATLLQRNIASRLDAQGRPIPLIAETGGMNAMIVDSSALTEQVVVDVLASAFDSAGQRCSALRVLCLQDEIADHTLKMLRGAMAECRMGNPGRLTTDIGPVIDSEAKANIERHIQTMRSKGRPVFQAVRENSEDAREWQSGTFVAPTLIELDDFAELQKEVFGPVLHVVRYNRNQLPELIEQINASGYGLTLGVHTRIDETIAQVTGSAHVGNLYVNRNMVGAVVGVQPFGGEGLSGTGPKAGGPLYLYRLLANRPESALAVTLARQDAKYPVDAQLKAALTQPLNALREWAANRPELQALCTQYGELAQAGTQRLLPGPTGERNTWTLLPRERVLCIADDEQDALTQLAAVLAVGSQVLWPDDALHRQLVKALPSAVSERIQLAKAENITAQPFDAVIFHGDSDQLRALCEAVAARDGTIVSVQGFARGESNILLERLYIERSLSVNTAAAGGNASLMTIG

B1 (enzyme)
kcat/Km (Nc1ncnc2c1ncn2[C@@H]1O[C@H](COP(=O)(O)OP(=O)(O)OP(=O)(O)OP(=O)(O)OP(=O)(O)OC[C@H]2O[C@@H](n3cnc4c(N)ncnc43)[C@H](O)[C@@H]2O)[C@@H](O)[C@H]1O; steady-state kinetics; with: Mg2+): 14000 M⁻¹ s⁻¹

B2 (enzyme R85Q)
kcat/Km (CC(=O)C(=O)O; steady-state kinetics; pH 6, 60 °C, with: 0.3 mM NADH): 4200 M⁻¹ s⁻¹

CUUUAGUCU (ssRNA)
Kd (U2AF2; sequencing of bound RNA; RNA; motif only): 8.47 µM

B3 (enzyme)
kcat/Km (NCCS; steady-state kinetics; pH 8, 25 °C, with: O2): 11 ± 2 M⁻¹ s⁻¹

putA (Escherichia coli, UniProt P09546)
kcat/Km (COC1=C(OC)C(=O)C(CC=C(C)C)=C(C)C1=O; steady-state kinetics; pH 7.4, 20 °C, with: proline 200 mM): 31000 ± 4600 M⁻¹ s⁻¹

enzyme (UniProt A0A4R3LQ44)
kcat/Km (O=C(O)[C@H](O)[C@@H](O)[C@@H](O)[C@H](O)CO; steady-state kinetics; pH 7.5, 50 °C): 24400 ± 2500 M⁻¹ s⁻¹

human SON
log2 fold change (CYB5R4 knockout human cells; PP4 interaction, 3xFLAG-PP4C IP-MS; concentration not given; relative to: CYB5R4 KO over parental): 0.63

B4 (nfsB)
kcat/Km (NC(=O)N/N=C/c1ccc([N+](=O)[O-])o1; steady-state kinetics; pH 7, 37 °C, with: NADPH 110 µM): 1.4e+06 ± 180000 M⁻¹ s⁻¹

B5 (enzyme H459A)
kcat/Km (Nc1ncnc2c1ncn2[C@@H]1O[C@H](COP(=O)(O)OP(=O)(O)OP(=O)(O)O)[C@@H](O)[C@H]1O; steady-state kinetics; pH 8.5, 25 °C, apparent, anoxic, with: L-Thr 10 mM): 312 ± 78 M⁻¹ s⁻¹

B6 (enzyme S252E/S281E/S285E/S287E)
kcat/Km (NC(=O)c1ccc[n+]([C@@H]2O[C@H](COP(=O)(O)OP(=O)(O)OC[C@H]3O[C@@H](n4cnc5c(N)ncnc54)[C@H](OP(=O)(O)O)[C@@H]3O)[C@@H](O)[C@H]2O)c1; steady-state kinetics; pH 7, 30 °C, apparent): 5000 ± 400 M⁻¹ s⁻¹

B7 (PYCR2 R251C)
kcat/Km (NC(=O)C1=CN([C@@H]2O[C@H](COP(=O)(O)OP(=O)(O)OC[C@H]3O[C@@H](n4cnc5c(N)ncnc54)[C@H](OP(=O)(O)O)[C@@H]3O)[C@@H](O)[C@H]2O)C=CC1; steady-state kinetics; pH 7.5, 37 °C, apparent, cofactor varied, with: DL-P5C 5000 µM): 15000 ± 1000 M⁻¹ s⁻¹

HNL C81L/E79H/G176S/H103V/K236M/N104T/T11G/V106F (Hevea brasiliensis)
kcat/Km (CC(=O)Oc1ccc([N+](=O)[O-])cc1; steady-state kinetics; pH 7.2, 22 °C): 2000 M⁻¹ s⁻¹

argC (Escherichia coli, UniProt P11446)
kcat/Km (N[C@@H](CCC=O)C(=O)O; steady-state kinetics; pH 7.6, apparent, with: 1 mM NADP+): 70 ± 1 M⁻¹ s⁻¹

UUUGUUUGC (ssRNA)
Kd (U2AF2; sequencing of bound RNA; RNA; motif only): 10.3 µM

B8 (enzyme)
kcat/Km (NC(=O)c1ccc[n+]([C@@H]2O[C@H](COP(=O)(O)OP(=O)(O)OC[C@H]3O[C@@H](n4cnc5c(N)ncnc54)[C@H](O)[C@@H]3O)[C@@H](O)[C@H]2O)c1; steady-state kinetics; pH 7, 30 °C, cofactor varied): 800 M⁻¹ s⁻¹

B9 (human ADP/ATP translocase 1)
log2 fold change (CYB5R4 knockout human cells; PP4 interaction, 3xFLAG-PP4C IP-MS; concentration not given; relative to: CYB5R4 KO over parental): -0.46

B10 (DCK)
kcat/Km (Nc1ccn([C@@H]2O[C@H](CO)[C@@H](O)C2(F)F)c(=O)n1; steady-state kinetics; pH 7.6, per site): 8300 M⁻¹ s⁻¹

enzyme (Sargassum horneri, UniProt A0A097IUG6)
kcat/Km (C=C(OP(=O)(O)O)C(=O)O; steady-state kinetics; pH 6.5, 25 °C, with: 2 mM ADP): 59000 M⁻¹ s⁻¹

Repeated from above:
B9 (human ADP/ATP translocase 1)
log2 fold change (CYB5R4 knockout human cells; PP4 interaction, 3xFLAG-PP4C IP-MS; concentration not given; relative to: CYB5R4 KO over parental): -0.46
